Published values of several laboratories.
Parts stem from different laboratories: compare values within a part only. Positions count from the first letter of the parent shown.

Sample 1
Target: CCNE2, cyclin fold, Cln2 fusion (human)
Technique: yeast growth competition, sequencing
Matrix: yeast
Notes: weak parent motif
Baseline: not given
Direction: higher = stronger binding
Quantity: normalised enrichment score
Starting sequence: REV3L docking peptide (human); PPVIIKYIIINRF
I4A: 0.407
P2A: 0.599
F13A: 0.563
I9A: 0.72
Y7A: 0.967
N11A: 0.42
P1A: 0.661

Sample 2
Target: Fragile X messenger ribonucleoprotein 1, C-terminal low-complexity region (Fmr1, Mus musculus, UniProt P35922)
Technique: RNA Bind-n-Seq
Form: RNA
Matrix: in vitro
Concentration: 200 nM
Notes: whole 134-nt RNA, ends assumed
With: 150 mM KCl
Baseline: input library
Direction: higher = stronger binding
Quantity: log2 enrichment
Constant ends, left off below: GGGAGUUCUACAGUCCGACGAUC … UGGAAUUCUCGGGUGUCAAGG
UCCUGUGCUACACAUCGUAUGUACCGAAUCGGGGUUUUUGGGGAAAGGGGUUUUUGGGGAAAGUAUUAUGUUACGCCGUUCGGAUCUGCA: 0.82
ACCAUGCAGGUGGGCAUCUUUGGGAAGUGGGGCAAGGGGGGGAUAGGGAGGGGGGUAACACUUUGGGAACAGGUGGUCCCAGGUCGAAAC: 0.66
AAGUCCUGUGCUACACAUCGUAUGUACCGAAUCGGGGAGGGGAAAGGGGUUUGGGGAAAGUAUUAUGUUACGCCGUUCGGAUCUGCACUU: 0.839
UCCUUCCUUUUUUUGUCUUAAACAUAGGACAUGGAUUUGAUUGACAUACUUUGGAGGCAAGAUAUAGAUCUUGGAGUAAGUCGAGAAGUA: -0.282
UCCUGUGCUACACAUCGUAUGUACCGAAUCGGGGUGGGGAAAAAAAGGGGUUUUUGGGGAAAGUAUUAUGUUACGCCGUUCGGAUCUGCA: 0.843
GUCCUGUGCUACACAUCGUAUGUACCGAAUCGGGGUUUUUGGGGUUUUUGGUUUUUGGGAAAGUAUUAUGUUACGCCGUUCGGAUCUGCA: -0.139
UCAAGUCCUGUGCUACACAUCGUAUGUACCGAAUCGGAAAGGGGAAAGGAAAGGAAAGUAUUAUGUUACGCCGUUCGGAUCUGCACUUCC: -0.674
UGGCCCUGGUGGCAUGCGGGGAGGAAGAGGUGGCCUCAUGGAUCGAGGUGGUCCCGGUGGAAUGUUCAGAGGUGGCCGUGGUGGAGACAG: 0.0398
ACCAUGCAGGUGGGCAUCUUUCGGAAGUGGGGCAAGGGGGGGAUAGGGAGGGGGGUAACACUUUGGGAACAGGUGGUCCCAGGUCGUUUC: 1.09

Sample 3
Target: NFE2L3, bZIP domain (human)
Technique: DHFR protein complementation
Matrix: yeast
Notes: single substitutions, most at no-binding floor
Baseline: wild-type JUN-FOS pair
Direction: higher = stronger binding
Quantity: binding fitness
Starting sequence: JUN, bZIP domain (human); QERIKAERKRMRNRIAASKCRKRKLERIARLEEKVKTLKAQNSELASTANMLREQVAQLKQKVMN; partner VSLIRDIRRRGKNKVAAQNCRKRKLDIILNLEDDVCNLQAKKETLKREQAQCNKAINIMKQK
L31E: -1.37 natural log
A46G: -1.44 natural log
K39D: -1.5 natural log
T48Q: -1.49 natural log
N42A: -1.47 natural log
A57N: -1.28 natural log
L38V: -1.45 natural log
K39P: -1.43 natural log
L38R: -1.56 natural log
L45C: -1.53 natural log
K36G: -1.44 natural log
K39G: -1.46 natural log
L38A: -1.48 natural log
A29R: -1.29 natural log
L45P: -1.53 natural log
E33F: -1.5 natural log
L59T: -1.45 natural log
K39V: -1.51 natural log
A40E: -1.55 natural log

Sample 4
Target: RING finger protein unkempt homolog, zinc fingers 1-6, SBP tag (UNK, Homo sapiens, UniProt Q9C0B0, residues 30-357)
Sequence of UniProt Q9C0B0 (30-357, looked up): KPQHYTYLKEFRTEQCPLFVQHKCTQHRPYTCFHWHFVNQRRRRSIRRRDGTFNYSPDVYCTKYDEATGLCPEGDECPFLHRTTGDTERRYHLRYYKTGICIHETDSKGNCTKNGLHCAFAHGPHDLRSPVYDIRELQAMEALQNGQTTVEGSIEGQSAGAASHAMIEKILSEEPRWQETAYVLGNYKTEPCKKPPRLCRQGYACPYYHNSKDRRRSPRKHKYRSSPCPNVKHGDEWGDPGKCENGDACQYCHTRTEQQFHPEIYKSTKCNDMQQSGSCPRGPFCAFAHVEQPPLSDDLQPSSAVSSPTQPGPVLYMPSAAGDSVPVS
Technique: RNA Bind-n-Seq
Form: RNA
Matrix: in vitro
Concentration: 100 nM
Notes: RNA with constant flanks, vertebrate orthologous sites, ends assumed
Baseline: input RNA pool
Direction: higher = stronger binding
Quantity: bound/input enrichment
Constant ends, left off below: GGGAGUUCUACAGUCCGACGAUC … CAACAGAGGAUUGAGCAUCA
AUUCAAACCUGUGGUGCCGUGGCCUCAUGUUGAAGGAGUAGAAGUGGACUUAGAGUCUAUUAGAAGAAAAAACAAGGCCAAAAAUGAACAAGAGCGCCACGCUGGAGGAGCUAACCAGAA: 0.34 ratio
CCGAAAGGCCAAAUUCCCUCCUCCCUUCUACUGCUUCUACCAACUGGAAGCACAGAAAACUAGAAUUUCAUUUAUUUUGUUUUUAAAAAAAUAUAUGUUGAUUUCUUGUAACAUCCAAUA: 0.461 ratio
CAGCUGAUUCACUCAUUGGAAGAGCUGCACAUAUAGCUGUUCUGGAUUCAGAAAUAUUUUUGGAGAAAUUCUUCCUGGUUGCUGCCCUCAAAUAUUUCCAAUAGAAUAAACAUAUUAGAC: 1.4 ratio
UCAUAUUGUGUGUAGAGAAAAAUCUUCAUUGACCCAUUGUGAAAUUCCCUAGUAAUUAUUUGGAAUCUUAAUUUUUCUAAUUCAAGUUCAUUGUAUUAGUCAUUUUUAGCCCAUAAUUAA: 0.171 ratio
UCGUACCCCACCCUUGCGAGAGAGGGUGGGGAGAGCAGGUGACCCUCAGCUGUUCUGAUUUAGGAUCUUUUUUUCUUUCAUUUUAAGAAUUACUGUAUUUAUUAUGACGAUGGUGACUCC: 0.787 ratio
CUAAAUCCCAUCUCUUCUGUUUCAUAGUGUGGAAGUAUUUCUUCAACAACCAUAACUUUAAUGACAAUUUUUUAAAAAUUCUACAGAAACUUCCAGUGUGGAUACUAUAAGAAUGGGCCA: 0.559 ratio
GUUGUGACCCAUUUAACAUACACAAAAAACUAGCCAAAAAAAAUUUGCAUGUAAUUGACUUAGAUGAUGCCACUUUUCUGAGUGCAAAAUUUGGAAGGCAGCUUGUACCUGGUUGGAAGC: 1.28 ratio
CUUUUAAUCAACUAUGUCUGUAAAUGUAUAUUGAGAGAAUUGAAGUAUUUAUAAACAGAGUGAUUUAUUUAAGGAAAAGCUUAUCCCUCUUUCCUAUCGUGGUCUGUGUUAAUUACAUUU: 0.29 ratio

Single results of other studies
PhoQ, residues 284 288 289 292 302 303 SLSVQF
fold induction (PhoP, residues 12 14 15 18 19 NYFTV (Escherichia coli, UniProt P23836); Sort-seq, refers to: YFP reporter; E. coli; PhoQ-PhoP variant library, with: 10 µM Mg2+; baseline: high Mg2+ state, higher = stronger signaling): 13.3

Excerpt of the above (sample 1):
Y7A: 0.967
N11A: 0.42
P2A: 0.599
I9A: 0.72
P1A: 0.661
